Published values pooled from the literature.
± marks the error that the study gave.
Cell line: HepG2

SMILES | assay | setting | how to read | endpoint | value
C[C@@H]1O[C@@H](O[C@H]2[C@H](O[C@H]3CC[C@@]4(C)C(CC[C@]5(C)C4CC=C4C6CC(C)(C)CC[C@]6(C(=O)O[C@@H]6O[C@H](CO)[C@@H](O)[C@H](O)[C@H]6O)CC[C@]45C)[C@]3(C)CO)OC[C@H](O)[C@@H]2O)[C@H](O)[C@H](O[C@@H]2OC[C@@H](O)[C@H](O)[C@H]2O)[C@H]1O (stereo partly shown) | cell growth or viability, CCK-8 | 50 µM, 24 h |  | viability | 69.3%
COc1cccc2c(-c3ccc4c(c3O)[C@@H](C)N[C@H](C)C4)c(CO)cc(OC)c12 | cytotoxicity |  |  | EC50 | 45.5 ± 12.1 µM
COc1ccc(OC)c(/C=N\NC(=O)[C@]2(C)C3CC[C@]4(C)C(C(=O)C=C5C6[C@@H](C)[C@H](C)CC[C@]6(C)CC[C@]54C)[C@@]3(C)CC[C@H]2OC(C)=O)c1 (stereo partly shown) | cell growth or viability, MTT | 25 µM, 24 h |  | viability | 90%
CCC1=C(C)C(c2ccc[nH]2)=NC1=CNC1CCCCCC1 | cell growth or viability, resazurin |  |  | IC50 | 15.8 µM
COC1C=COC2(C)Oc3c(C)c(O)c4c(c3C2=O)C2=NC3(CCN(CC(C)C)CC3)NC2=C(NC(=O)C(C)=CC=CC(C)C(O)C(C)C(O)C(C)C(OC(=O)Nc2cscn2)C1C)C4=O (stereo not shown) |  | 48 h | reference: CC50 over MIC | selectivity index | 823
CC1=CC(OC(=O)c2ccccc2)C2(COC(=O)c3ccccc3)CCC(=C(C)C)C2C(O)CC2(C)OC2CC1 (stereo not shown) | cell growth or viability, CCK-8 | 30 µM, 24 h |  | viability | 90.7%
CC1=N[C@H](C)Cc2c(-c3ccc4ccccc4c3)ccc(O)c21 | cytotoxicity |  |  | EC50 | > 50 µM
Cc1nc(N(C)C)nc(C)c1O |  | 100 µM, 24 h | reference: untreated | intracellular ATP level | ~1.8 fold control
CC(=O)O[C@@H]1CC[C@@]2(C)C(CC[C@]3(C)C2C(=O)C=C2C4[C@@H](C)[C@H](C)CC[C@]4(C)CC[C@]23C)[C@@]1(C)C(=O)N/N=C\c1ccccc1O (stereo partly shown) | cell growth or viability, MTT | 25 µM, 24 h |  | viability | 99%
CC(C)=C1CC[C@]2(COC(=O)c3ccccc3)[C@@H](OC(=O)c3ccccc3)/C=C(\C)CC[C@@H]3O[C@@]3(C)C[C@@H](OC(=O)c3cccnc3)[C@@H]12 | cell growth or viability, CCK-8 | 20 µM, 24 h |  | viability | 93.1%
COc1cccc(/C=N\NC(=O)[C@]2(C)C3CC[C@]4(C)C(C(=O)C=C5C6[C@@H](C)[C@H](C)CC[C@]6(C)CC[C@]54C)[C@@]3(C)CC[C@H]2OC(C)=O)c1 (stereo partly shown) | cell growth or viability, MTT | 25 µM, 24 h |  | viability | 93%
COc1ccc(C(=O)/C=C(\O)C(F)(F)C(F)(F)F)c(O)c1 | cell viability | 24 h, 10% FBS |  | EC50 | ~10 µM
CC(C)=CCc1c(O)cc(CO)cc1O | cell growth or viability, CCK-8 | 30 µM, 24 h |  | viability | 89.4%
CCCCN=Cc1[nH]c(-c2ccc[nH]2)cc1OC | cell growth or viability, resazurin |  |  | IC50 | 23 µM
CCOC(=O)c1cn(-c2nc(C(F)(F)F)n[nH]2)nn1 | MTT | up to 500 µM |  | cytotoxicity | not toxic
COC1C=COC2(C)Oc3c(C)c(O)c4c(c3C2=O)C2=NC3(CCN(CC(C)C)CC3)NC2=C(NC(=O)C(C)=CC=CC(C)C(O)C(C)C(O)C(C)C(OC(=O)c2cncnc2)C1C)C4=O (stereo not shown) |  | 48 h | reference: CC50 over MIC | selectivity index | 4560
CCCCCCCCCCCCCNCC(=O)N(CC(=O)N(CCCCN)CC(=O)N(CCN)CC(=O)N(CC(N)=O)Cc1cccs1)Cc1cccs1 | cytotoxicity, MTT | 72 h |  | TD50 | 154 ± 47 µg/mL
O=C(CCl)Sc1nnc(-c2n[nH]c(=O)c3ccccc23)o1 | qRT-PCR, item: TXNRD1 | IC50, 8 h | reference: untreated | mRNA level | 0.93 ± 0.09 fold
COc1cc([C@@H]2OC[C@@H]3[C@H]2CO[C@H]3c2cc(OC)c(O)c(OC)c2)cc(OC)c1O | cell growth or viability, CCK-8 | 30 µM, 24 h |  | viability | 80.2%
CC(C)C1=CC(=CNC23CC4CC(CC(C4)C2)C3)N=C1c1ccc[nH]1 | cell growth or viability, resazurin |  |  | IC50 | 18.5 µM
COc1ccc(/C=N\NC(=O)[C@]2(C)C3CC[C@]4(C)C(C(=O)C=C5C6[C@@H](C)[C@H](C)CC[C@]6(C)CC[C@]54C)[C@@]3(C)CC[C@H]2OC(C)=O)cc1 (stereo partly shown) | cell growth or viability, MTT | 25 µM, 24 h |  | viability | 89%
COC1=CC(c2ccc[nH]2)=NC1=CNC1CCCC1 | cell growth or viability, resazurin |  |  | IC50 | 30.5 µM

SMILES | assay | setting | how to read | endpoint | value
CC(=O)N[C@H]1[C@@H](OCc2cn(CC(=O)N3C[C@@H](ONC(=O)[C@@H]4C[C@H](ON5C(=O)c6ccccc6C5=O)CN4C(=O)Cn4cc(CO[C@H]5O[C@H](CO)[C@H](O)[C@H](O)[C@H]5NC(C)=O)nn4)C[C@H]3C(=O)NO[C@H]3C[C@@H](C(=O)NO[C@H]4C[C@@H](C(=O)OC(C)(C)C)N(C(=O)Cn5cc(CO[C@H]6O[C@H](CO)[C@H](O)[C@H](O)[C@H]6NC(C)=O)nn5)C4)N(C(=O)Cn4cc(CO[C@H]5O[C@H](CO)[C@H](O)[C@H](O)[C@H]5NC(C)=O)nn4)C3)nn2)O[C@H](CO)[C@H](O)[C@@H]1O | MTS | concentration not given, 72 h |  | cytotoxicity | not toxic
COc1cc(C=O)ccc1OC(=O)COC(=O)[C@]1(C)C2CC[C@]3(C)C(C(=O)C=C4C5[C@@H](C)[C@H](C)CC[C@]5(C)CC[C@]43C)[C@@]2(C)CC[C@H]1OC(C)=O (stereo partly shown) | cell growth or viability, MTT | 25 µM, 24 h |  | viability | 86%
CCCCCCCCCCCCCNCC(=O)N(CC(=O)N(CCCCN)CC(=O)N(CCN)CC(=O)N(CC(N)=O)CC1CCCO1)CC1CCCO1 (stereo not shown) | cytotoxicity, MTT | 72 h |  | TD50 | > 200 µg/mL
COc1cc(C)c(-c2ccc(O)c3c2C[C@@H](C)N[C@@H]3C)c2cccc(O)c12 (single isomer, unassigned) | cytotoxicity |  |  | EC50 | > 50 µM
COC(=O)CC[C@@H](NC(=O)[C@@H](Cc1ccc(OP(=O)(O)O)cc1)NC(=O)[C@@H](Cc1ccccc1)NC(=O)[C@@H](Cc1ccccc1)NC(=O)Cc1ccc2ccccc2c1)C(=O)OC |  | 200 µM, 24 h |  | remaining compound | 46.9%
COc1cccc2c(-c3ccc(O)c4c3C[C@@H](C)N[C@@H]4C)c(C)cc(O)c12 | cytotoxicity |  |  | EC50 | 25 ± 11.6 µM
CCCCCCCCCCCCCNCC(=O)N(CC(=O)N(CCCCN)CC(=O)N(CCN)CC(=O)N(CC(N)=O)c1ccc2c(c1)CCC2)c1ccc2c(c1)CCC2 | cytotoxicity, MTT | 72 h |  | TD50 | 91 ± 4 µg/mL
COC1C=COC2(C)Oc3c(C)c(O)c4c(c3C2=O)C2=NC3(CCN(CC(C)C)CC3)NC2=C(NC(=O)C(C)=CC=CC(C)C(O)C(C)C(O)C(C)C(OC(=O)Nc2cccnn2)C1C)C4=O (stereo not shown) |  | 48 h | reference: CC50 over MIC | selectivity index | 1740
CC(=O)O[C@@H]1CC[C@@]2(C)C(CC[C@]3(C)C2C(=O)C=C2C4[C@@H](C)[C@H](C)CC[C@]4(C)CC[C@]23C)[C@@]1(C)c1nnc(SCC(=O)Oc2cc(C)ccc2C(C)C)o1 (stereo partly shown) | cell growth or viability, MTT | 25 µM, 24 h |  | viability | 95%
CCC1=CC(c2ccc[nH]2)=NC1=CNC12CC3CC(CC(C3)C1)C2 | cell growth or viability, resazurin |  |  | IC50 | 6.1 µM
O=C(OCc1cccc(O)c1O)c1ccc(O)c(CO)c1 |  | 20 µM, 48 h |  | cytotoxicity | not toxic
COC1=CC(c2ccc[nH]2)=NC1=Cc1[nH]c(Cc2ccc(Cl)cc2)cc1Cc1ccc(Cl)cc1 | cell growth or viability, resazurin |  |  | IC50 | > 250 µM
COC(=O)C1C(c2nc3ncccc3[nH]2)=Cc2cc3c(cc2C1c1cc(OC)c(OC)c(OC)c1)OCO3 (stereo not shown) | cell growth or viability, resazurin | 48 h |  | CC50 | 95 µM
CC1(C)CC[C@]2(C(=O)O)CC[C@]3(C)C(=CC[C@@H]4[C@@]5(C)CC[C@H](O)[C@@](C)(C(=O)O)[C@@H]5CC[C@]43C)[C@@H]2C1 | cell growth or viability, MTT | 72 h |  | IC50 | 35.7 µM
Cc1ccc(C)c2sc(NC(=O)C3CCN(S(=O)(=O)c4ccc(F)cc4)CC3)nc12 | MTT | up to 30 µM, 24 h |  | cytotoxicity | not toxic
CC1=CC(=CNC23CC4CC(CC(C4)C2)C3)N=C1c1ccc[nH]1 | cell growth or viability, resazurin |  |  | IC50 | 30 µM
CC(=O)O[C@@H]1CC[C@@]2(C)C(CC[C@]3(C)C2C(=O)C=C2C4[C@@H](C)[C@H](C)CC[C@]4(C)CC[C@]23C)[C@@]1(C)C(=O)N/N=C\C=Cc1ccccc1 (stereo partly shown) | cell growth or viability, MTT | 25 µM, 24 h |  | viability | 91%
COc1cccc2c(-c3ccc(O)c4c3CCNC4)ccc(O)c12 | cytotoxicity |  |  | EC50 | 32.3 ± 5.6 µM
COc1ccc(/C=N\NC(=O)[C@]2(C)C3CC[C@]4(C)C(C(=O)C=C5C6[C@@H](C)[C@H](C)CC[C@]6(C)CC[C@]54C)[C@@]3(C)CC[C@H]2OC(C)=O)cc1OC (stereo partly shown) | cell growth or viability, MTT | 25 µM, 24 h |  | viability | 94%
CC(C)=CCc1c(O)cc2c(c1O)C(=O)OC2 | cell growth or viability, CCK-8 | 30 µM, 24 h |  | viability | 91.1%
COC1=CC(c2ccc[nH]2)=NC1=CNC1CCCCCC1 | cell growth or viability, resazurin |  |  | IC50 | 10.1 µM
